Experimental data pooled from the literature.
Numbers after ± are the reported error.
NECTIN4: NECTIN4 32-349 (Homo sapiens, UniProt Q96NY8)
Chain of UniProt Q96NY8 (whole entry, looked up): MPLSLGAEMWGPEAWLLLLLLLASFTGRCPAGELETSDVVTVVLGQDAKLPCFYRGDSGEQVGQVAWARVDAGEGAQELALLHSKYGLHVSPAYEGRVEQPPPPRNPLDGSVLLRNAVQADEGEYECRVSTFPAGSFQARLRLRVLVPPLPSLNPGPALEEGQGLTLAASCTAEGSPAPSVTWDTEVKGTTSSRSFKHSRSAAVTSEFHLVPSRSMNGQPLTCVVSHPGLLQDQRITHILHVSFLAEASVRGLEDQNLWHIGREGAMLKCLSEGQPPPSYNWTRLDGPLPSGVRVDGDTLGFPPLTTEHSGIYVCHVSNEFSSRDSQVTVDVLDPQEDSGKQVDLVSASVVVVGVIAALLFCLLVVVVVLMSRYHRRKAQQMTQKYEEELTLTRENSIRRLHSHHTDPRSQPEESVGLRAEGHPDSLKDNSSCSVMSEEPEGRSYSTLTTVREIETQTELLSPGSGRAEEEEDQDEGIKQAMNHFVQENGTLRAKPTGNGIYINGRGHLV
T1: RAMP2/CALCR extracellular domain fusion 43-143 (Homo sapiens); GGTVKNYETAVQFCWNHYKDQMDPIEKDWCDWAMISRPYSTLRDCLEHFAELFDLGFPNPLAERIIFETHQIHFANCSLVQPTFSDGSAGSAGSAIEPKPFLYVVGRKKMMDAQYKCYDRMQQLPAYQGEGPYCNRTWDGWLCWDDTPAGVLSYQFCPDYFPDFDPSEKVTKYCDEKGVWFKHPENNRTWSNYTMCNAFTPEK
B1: DLL4 27-400 G28S/F107L/I143F/H194Y/L206P/N257P/T271L/F280Y/S301R/Q305P (Homo sapiens, UniProt Q9NR61); sequence looked up; chain SSVFQLQLQEFINERGVLASGRPCEPGCRTFFRVCLKHFQAVVSPGPCTFGTVSTPVLGTNSFAVRDDSSGGGRNPLQLPLNFTWPGTFSLIIEAWHAPGDDLRPEALPPDALISKFAIQGSLAVGQNWLLDEQTSTLTRLRYSYRVICSDNYYGDNCSRLCKKRNDYFGHYVCQPDGNPSCLPGWTGEYCQQPICLSGCHEQNGYCSKPAECLCRPGWQGRLCNECIPHPGCRHGTCSTPWQCLCDEGWGGLYCDQDLNYCTHHSPCKNGATCRNSGPRSYTCTCRPGYTGVDCELELSECDSNPCRNGGSCKDQEDGYHCLCPPGYYGLHCEHSTLSCADSPCFNGGSCRERNQGANYACECPPNFTGSNCE
B2: PTPRJ (Mus musculus, UniProt Q64455); chain RQGQVLCAGAAPNPIFDIEAVVSPTSVLLTWKHNDSGASECRIENKMESNLTFPVKNQTSCNITGLSPGTSYTFSIISVTTNETLNKTITTEPWPVSDLHVTSVGVTQARLTWSNANGTASYRMLIEELTTHSSVNISGLKPGTNNSFAFPESNETQADFAVAEEVPDANGTKRIPVTNLSQLHKNSLVSVDPPSGQDPSLTEILLTDLKPDTQYNATIYSQAANGTEGQPRNKVFKTNSTQVSDVRAMNISASSMTLTWKSNYDGSRTSIVYKIHVAGGTHSVNQTVNKTEAIILGLSSSTLYNITVHPFLGQTEGTPGFLQVYTSPDQVSDFRVTNVSTRAIGLAWRSNDSKSFEIFIKQDGGEKHRNASTGNQSYMVEDLKPGTSYHFEIIPRGPDGTEGLSSTVNGSTDPSAVTDIRVVNISTTEMQLEWQNTDDASGYTYHLVLESKSGSIIRTNSSQKWITVGSLTPGTLYNVTIFPEVDQIQGISNSITQYTRPSSVSHIEVNTTTTTAAIRWKNEDAASASYAYSVLILKTGDGSNVTSNFTKDPSILIPELIPGVSYTVKILTQVGDGTTSLVPGWNLFCTEPEPVTSFHCEVVPKEPALVLKWACPFGMYTGFELGVRSDSWDNMTRLENCTSDDDTECRTEVAYLNFSTSYNISIATLSCGKMALPAQNICTTGITDPPTPDGSPNITSVSHNSVKVKFSGFEASHGPIKAYAVILTTGEAAQPSADVLKYTYEDFKRGASDTYVTYLIRIEEKGQSQGLSEVLNYEIDVGNQSTTLGYYNGRLEPLGSYRACVAGFTNITYNLQNDGLINGDESYVSFSPYSEAVFLPQDPGVICGAVFGCIFGALAITAVGGFIFWRKKRTDAKNNEVSFSQIKPKKSKLIRVENFEAYFKKQQADSNCGFAEEYEDLKLIGISLPKYTAEIAENRGKNRYNNVLPYDISRVKLSVQTHSTDDYINANYMPGYHSKKDFIATQGPLPNTLKDFWRMVWEKNVYAIVMLTKCVEQGRTKCEEYWPSKQAQDYGDITVAMTSEVVLPEWTIRDFVVKNMQNSESHPLRQFHFTSWPDHGVPDTTDLLINFRYLVRDYMKQIPPESPILVHCSAGVGRTGTFIAIDRLIYQIENENTVDVYGIVYDLRMHRPLMVQTEDQYVFLNQCVLDIIRAQKDSKVDLIYQNTTAMTIYENLEPVSMFGKTNGYIA
B3: SIGLEC9 18-348 (Homo sapiens, UniProt Q9Y336); sequence looked up; chain QTSKLLTMQSSVTVQEGLCVHVPCSFSYPSHGWIYPGPVVHGYWFREGANTDQDAPVATNNPARAVWEETRDRFHLLGDPHTKNCTLSIRDARRSDAGRYFFRMEKGSIKWNYKHHRLSVNVTALTHRPNILIPGTLESGCPQNLTCSVPWACEQGTPPMISWIGTSVSPLDPSTTRSSVLTLIPQPQDHGTSLTCQVTFPGASVTTNKTVHLNVSYPPQNLTMTVFQGDGTVSTVLGNGSSLSLPEGQSLRLVCAVDAVDSNPPARLSLSWRGLTLCPSQPSNPGVLELPWVHLRDAAEFTCRAQNPLGSQQVYLNVSLQSKATSGVTQG
B4: TIMP1 (Homo sapiens, UniProt P01033); chain CTCVPPHPQTAFCNSDLVIRAKFVGTPEVNQTTLYQRYEIKMTKMYKGFQALGDAADIRFVYTPAMESVCGYFHRSHNRSEEFLIAGKLQDGLLHITTCSFVAPWNSLSLAQRRGFTKTYTVGCEECTVFPCLSIPCKLQSGTHCLWTDQLLQGSEKGFQSRHLACLPREPGLCTWQSLRSQIA
B5: LMNA 389-572 (Homo sapiens, UniProt P02545-2); sequence looked up; chain LSPSPTSQRSRGRASSHSSQTQGGGSVTKKRKLESTESRSSFSQHARTSGRVAVEEVDEEGKFVRLRNKSNEDQSMGNWQIKRQNGDDPLLTYRFPPKFTLKAGQVVTIWAAGAGATHSPPTDLVWKAQNTWGCGNSLRTALINSTGEEVAMRKLVRSVTVVEDDEDEDGDDLLHHHHVSGSRR
B6: TIMP2 27-153 (Homo sapiens, UniProt P16035); sequence looked up; chain CSCSPVHPQQAFCNADVVIRAKAVSEKEVDSGNDIYGNPIKRIQYEIKQIKMFKGPEKDIEFIYTAPSSAVCGVSLDVGGKKEYLIAGKAEGDGKMHITLCDFIVPWDTLSTTQKKSLNHRYQMGCE
Chain of UniProt P40026 (whole entry, looked up): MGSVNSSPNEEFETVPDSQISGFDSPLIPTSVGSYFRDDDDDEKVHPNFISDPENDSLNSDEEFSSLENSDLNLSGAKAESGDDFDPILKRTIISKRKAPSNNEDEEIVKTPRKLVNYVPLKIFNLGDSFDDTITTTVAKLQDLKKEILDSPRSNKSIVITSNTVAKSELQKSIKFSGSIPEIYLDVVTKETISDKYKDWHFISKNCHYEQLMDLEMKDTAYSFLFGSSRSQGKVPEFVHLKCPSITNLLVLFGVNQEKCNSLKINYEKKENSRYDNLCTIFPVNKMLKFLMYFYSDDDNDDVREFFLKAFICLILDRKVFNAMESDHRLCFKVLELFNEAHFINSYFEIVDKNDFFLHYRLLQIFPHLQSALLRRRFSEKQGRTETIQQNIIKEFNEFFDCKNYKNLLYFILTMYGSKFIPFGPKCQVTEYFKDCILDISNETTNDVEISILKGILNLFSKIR
Chain of UniProt Q9UM47 (whole entry, looked up): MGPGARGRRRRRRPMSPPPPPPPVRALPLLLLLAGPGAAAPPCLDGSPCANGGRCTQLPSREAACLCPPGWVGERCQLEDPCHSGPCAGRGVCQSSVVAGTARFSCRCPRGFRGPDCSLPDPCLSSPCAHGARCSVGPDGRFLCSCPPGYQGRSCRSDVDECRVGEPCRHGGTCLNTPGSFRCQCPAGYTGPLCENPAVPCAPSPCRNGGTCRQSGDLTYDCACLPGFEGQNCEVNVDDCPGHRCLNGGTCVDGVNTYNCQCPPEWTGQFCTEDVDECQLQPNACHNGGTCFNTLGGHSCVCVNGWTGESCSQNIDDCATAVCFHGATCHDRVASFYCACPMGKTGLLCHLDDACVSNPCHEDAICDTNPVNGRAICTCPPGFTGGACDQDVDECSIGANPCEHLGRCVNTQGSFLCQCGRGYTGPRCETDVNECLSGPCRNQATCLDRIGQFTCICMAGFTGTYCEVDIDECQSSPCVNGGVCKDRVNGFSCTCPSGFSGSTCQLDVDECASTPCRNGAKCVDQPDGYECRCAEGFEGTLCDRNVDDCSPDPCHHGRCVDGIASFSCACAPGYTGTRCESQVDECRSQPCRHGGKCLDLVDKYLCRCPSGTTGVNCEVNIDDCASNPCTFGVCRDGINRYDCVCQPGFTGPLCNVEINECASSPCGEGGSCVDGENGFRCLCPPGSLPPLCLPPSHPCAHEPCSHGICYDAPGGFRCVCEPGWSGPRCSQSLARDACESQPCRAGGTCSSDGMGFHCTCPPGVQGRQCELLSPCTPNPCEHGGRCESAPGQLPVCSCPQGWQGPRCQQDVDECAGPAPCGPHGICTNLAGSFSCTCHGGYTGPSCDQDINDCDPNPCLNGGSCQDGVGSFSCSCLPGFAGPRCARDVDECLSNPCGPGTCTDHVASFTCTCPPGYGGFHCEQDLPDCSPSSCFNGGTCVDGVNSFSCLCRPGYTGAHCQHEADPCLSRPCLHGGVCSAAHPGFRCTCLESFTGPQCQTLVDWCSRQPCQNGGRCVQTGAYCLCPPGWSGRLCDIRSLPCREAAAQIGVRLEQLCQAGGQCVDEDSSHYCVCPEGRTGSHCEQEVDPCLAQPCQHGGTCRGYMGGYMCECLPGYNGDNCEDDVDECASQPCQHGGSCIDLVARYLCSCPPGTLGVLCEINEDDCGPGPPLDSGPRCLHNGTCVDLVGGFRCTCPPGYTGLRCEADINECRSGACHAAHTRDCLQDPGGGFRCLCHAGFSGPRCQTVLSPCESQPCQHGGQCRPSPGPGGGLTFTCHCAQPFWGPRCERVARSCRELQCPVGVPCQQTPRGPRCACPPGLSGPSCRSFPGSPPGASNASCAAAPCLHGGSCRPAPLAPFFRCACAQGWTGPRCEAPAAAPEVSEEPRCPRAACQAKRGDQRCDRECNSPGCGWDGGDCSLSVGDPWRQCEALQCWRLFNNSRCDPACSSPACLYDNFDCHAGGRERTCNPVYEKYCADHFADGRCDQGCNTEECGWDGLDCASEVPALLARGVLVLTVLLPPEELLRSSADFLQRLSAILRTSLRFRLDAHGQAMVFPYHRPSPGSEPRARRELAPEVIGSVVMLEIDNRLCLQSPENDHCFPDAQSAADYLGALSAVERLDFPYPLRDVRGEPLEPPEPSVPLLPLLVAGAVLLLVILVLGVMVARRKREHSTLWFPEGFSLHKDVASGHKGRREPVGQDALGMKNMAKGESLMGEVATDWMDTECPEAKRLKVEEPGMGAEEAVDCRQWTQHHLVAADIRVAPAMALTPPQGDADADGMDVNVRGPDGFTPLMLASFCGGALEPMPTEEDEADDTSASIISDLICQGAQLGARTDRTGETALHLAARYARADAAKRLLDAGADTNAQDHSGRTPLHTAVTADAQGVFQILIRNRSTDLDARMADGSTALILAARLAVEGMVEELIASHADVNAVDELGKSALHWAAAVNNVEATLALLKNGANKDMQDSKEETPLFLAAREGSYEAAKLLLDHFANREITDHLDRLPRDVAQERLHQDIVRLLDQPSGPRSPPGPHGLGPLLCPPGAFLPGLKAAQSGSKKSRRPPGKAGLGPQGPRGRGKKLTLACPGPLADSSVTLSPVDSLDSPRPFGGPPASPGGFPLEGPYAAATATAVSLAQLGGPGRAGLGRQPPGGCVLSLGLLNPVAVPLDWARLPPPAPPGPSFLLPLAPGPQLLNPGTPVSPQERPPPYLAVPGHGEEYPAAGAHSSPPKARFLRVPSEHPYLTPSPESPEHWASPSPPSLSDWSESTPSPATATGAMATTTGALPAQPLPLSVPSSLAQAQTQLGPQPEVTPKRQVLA
Chain of UniProt P29496 (whole entry, looked up): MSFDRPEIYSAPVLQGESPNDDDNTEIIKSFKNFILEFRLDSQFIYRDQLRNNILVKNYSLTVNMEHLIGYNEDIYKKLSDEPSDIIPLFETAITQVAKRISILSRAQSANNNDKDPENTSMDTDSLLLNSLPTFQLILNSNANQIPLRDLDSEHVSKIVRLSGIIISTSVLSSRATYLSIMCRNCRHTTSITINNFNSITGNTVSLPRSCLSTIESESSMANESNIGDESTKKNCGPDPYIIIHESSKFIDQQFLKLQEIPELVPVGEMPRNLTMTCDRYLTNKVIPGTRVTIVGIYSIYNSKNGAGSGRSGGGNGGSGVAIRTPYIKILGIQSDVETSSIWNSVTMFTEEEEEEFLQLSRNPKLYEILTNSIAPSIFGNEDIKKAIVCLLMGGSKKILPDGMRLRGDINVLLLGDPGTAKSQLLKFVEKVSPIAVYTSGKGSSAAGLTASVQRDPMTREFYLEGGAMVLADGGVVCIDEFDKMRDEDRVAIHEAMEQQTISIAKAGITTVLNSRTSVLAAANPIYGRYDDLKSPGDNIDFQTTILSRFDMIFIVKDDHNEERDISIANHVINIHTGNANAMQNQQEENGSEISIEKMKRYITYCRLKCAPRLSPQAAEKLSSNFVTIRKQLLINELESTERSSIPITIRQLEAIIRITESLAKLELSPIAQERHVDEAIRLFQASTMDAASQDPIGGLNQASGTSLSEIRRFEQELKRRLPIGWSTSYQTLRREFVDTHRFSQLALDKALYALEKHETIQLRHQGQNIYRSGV
Chain of UniProt Q9HC52 (whole entry, looked up): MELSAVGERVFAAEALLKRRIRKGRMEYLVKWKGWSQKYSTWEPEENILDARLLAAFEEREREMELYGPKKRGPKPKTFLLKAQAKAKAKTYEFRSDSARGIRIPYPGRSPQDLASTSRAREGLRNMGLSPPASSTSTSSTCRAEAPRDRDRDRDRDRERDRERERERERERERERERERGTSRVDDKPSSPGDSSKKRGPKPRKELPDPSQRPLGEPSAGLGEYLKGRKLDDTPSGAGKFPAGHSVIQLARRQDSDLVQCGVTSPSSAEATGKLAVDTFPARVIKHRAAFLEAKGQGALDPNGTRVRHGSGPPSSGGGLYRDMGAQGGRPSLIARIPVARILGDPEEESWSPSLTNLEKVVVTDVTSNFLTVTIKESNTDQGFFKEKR
Chain of UniProt P08631 (whole entry, unmodified, looked up): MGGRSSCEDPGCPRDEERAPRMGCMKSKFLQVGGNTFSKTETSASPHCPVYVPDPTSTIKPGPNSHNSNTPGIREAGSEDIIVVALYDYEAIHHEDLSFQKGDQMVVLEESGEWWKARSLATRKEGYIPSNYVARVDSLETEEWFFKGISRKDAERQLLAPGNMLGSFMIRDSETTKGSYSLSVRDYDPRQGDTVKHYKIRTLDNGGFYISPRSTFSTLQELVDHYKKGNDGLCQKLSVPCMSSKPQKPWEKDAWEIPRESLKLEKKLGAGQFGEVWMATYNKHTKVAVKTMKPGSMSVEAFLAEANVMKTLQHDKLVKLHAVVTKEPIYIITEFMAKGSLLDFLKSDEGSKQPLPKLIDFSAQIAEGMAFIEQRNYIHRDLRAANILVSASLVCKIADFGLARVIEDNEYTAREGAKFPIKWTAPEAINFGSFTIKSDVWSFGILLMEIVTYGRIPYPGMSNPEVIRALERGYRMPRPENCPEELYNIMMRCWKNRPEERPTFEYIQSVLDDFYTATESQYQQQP

Molecule	partner	assay	system	setting	how to read	measurement	result
ADCYAP1 PACAP (Homo sapiens)	CALCRL/RAMP1 whole, on cells, myc, HA tags (human)	cAMP accumulation, antagonist	Cos7	off-target control, together with: CGRP		pA2	1.38 µM
MCM5 (Saccharomyces cerevisiae, UniProt P29496)	PSF2 (Saccharomyces cerevisiae, UniProt P40359)	cross-linking MS		hits only		interaction screen	cross-linked
FGG (Homo sapiens, UniProt P02679)	CCDC30 (Homo sapiens, UniProt Q5VVM6)	cross-linking MS		together with: DSSO		cross-linked residues	K185 to K346
TCP1 (Homo sapiens, UniProt P17987)	CCT4 (Homo sapiens, UniProt P50991)	cross-linking MS	cells	together with: BDP-NHP		cross-linked residues	K126 to K55
ARTKQTARKSTG (histone H3 peptide 1-12; K4me1)	Ehd3 417-547 D496A (Oryza sativa, UniProt Q6ZJM9)	ITC	peptide			molecule per partner	0.63
trastuzumab-MMAE ADC IgG1	FCGR2A (Homo sapiens, UniProt P12318)	BLI		ADC	baseline: unconjugated Trastuzumab, higher = weaker binding	KD fold increase	1.4 fold
ACTA1 (Gallus gallus, UniProt P68139)	MYH1 (Oryctolagus cuniculus, UniProt A0A5F9CQ93)	laser three-bead trap		Bell-bond fit, Pi 5 mM, together with: ATP 100 µM		detachment rate without load	120 s⁻¹
KRE29 (Saccharomyces cerevisiae, UniProt P40026)	SMC6 (Saccharomyces cerevisiae, UniProt Q12749)	cross-linking MS		hits only		interaction screen	cross-linked
SNCA fragment	S100B (Homo sapiens, UniProt P04271)	pull-down			baseline: flowthrough, higher = more binding	relative binding	2 fold
DDB1 (Homo sapiens, UniProt Q16531)	CDK12/CCNK	ternary complex induction by compounds, TR-FRET				EC50	> 10000 nM
DYNLRB1/DYNLL1/DYNLT1/DYNC1LI2/DYNC1I2/DYNC1H1 dynein-1 complex (Homo sapiens)	NINL/BICD2 chimera NINL CC, BicD2 LIC-BD 1-275, HaloTag, JF646 label	pull-down				Ka	> 1.6e+06 M⁻¹
FGB (Homo sapiens, UniProt P02675)	NBEAL1 (Homo sapiens, UniProt Q6ZS30)	cross-linking MS		together with: DSSO		cross-linked residues	K77 to K1974
ecfA (Listeria monocytogenes)	EcfA' (Listeria monocytogenes)	SEC-MALS				subunits per oligomer	1
BRIX1 (Homo sapiens, UniProt Q8TDN6)	EBNA1BP2 (Homo sapiens, UniProt Q99848)	cross-linking MS	cells	together with: iqPIR		cross-linked residues	K276 to K33
DLDSDDEY (TELO2 488-494 (Homo sapiens); pS491)	PIH1D1 51-180 K166A (Homo sapiens, UniProt Q9NWS0)	ITC	peptide			molecule per partner	0.6
JAZ2 fragment (Arabidopsis thaliana)	NINJA (Arabidopsis thaliana, UniProt Q9SV55)	competitor, AlphaScreen or HTRF				IC50	190 nM
B1	NOTCH3 EGF5-12 197-505 (Homo sapiens, UniProt Q9UM47)	SPR			baseline: WT, higher = stronger binding	affinity enhancement	591 fold
ACPFGCMKNASWPIWCTNK (Bicycle 66 bicyclic peptide; C-terminal amide/TATA scaffold, three cysteines cyclised)	NECTIN4	fluorescence polarisation	peptide			Ki	> 10000 nM

Molecule	partner	assay	system	setting	how to read	measurement	result
SQELHKLQTYPRTNTGSGTP (salmon calcitonin 13-32 (Salmo salar); N-terminal FITC-Ahx/C-terminal amide)	T1, RAMP2/CALCR extracellular domain fusion 43-143 (Homo sapiens)	fluorescence polarisation	peptide			pKD	5.36
B2 (PTPRJ)	Insr (Mus musculus)	proximity ligation	N2a	together with: insulin	baseline: resting WT cells, higher = more PLA signal	PLA signal change	1.4 fold
B3 (SIGLEC9 18-348)	GPNMB extracellular domain 23-498 (Homo sapiens, UniProt Q14956)	BLI	Fc fusion	together with: sialidase	baseline: untreated GPNMB, lower = reduced binding after sialidase	relative binding	5.42 fold
B4 (TIMP1)	MMP1 100-269 (Homo sapiens, UniProt P03956)	MMP-1 inhibition, inhibitor, Morrison tight-binding equation				Ki	2.5 nM
CSN1S1 alpha-S1-casein, dephosphorylated	hhp1 1-296 (Schizosaccharomyces pombe, UniProt P40235)	pull-down				Ki	14000 nM
ALB (Homo sapiens, UniProt P02768)	NUBP1 (Homo sapiens, UniProt P53384)	cross-linking MS		together with: DSSO		cross-linked residues	K402 to K211
CAMK2D F368A (Homo sapiens)	itself	mass photometry		100 nM	higher = more tetramers	tetramers	5%
H3C1 N-terminal peptide, K14 butyryl	KAT6A 194-323 (Homo sapiens, UniProt Q92794)	ITC		pH 7.5		ΔH	-1.8 kcal/mol
B5 (LMNA 389-572)	SREBF1 227-487 (Homo sapiens, UniProt P36956)	ITC		single-site fit		ΔH	-214 ± 31 kcal/mol
KISPPTPKPRPPRPLPVAPGS (PIK3R1 proline-rich region 1 (Homo sapiens))	HCK 78-138 (Homo sapiens, UniProt P08631)	ITC	peptide			ΔH	-7.41 ± 0.167 kcal/mol
MMS21 (Saccharomyces cerevisiae, UniProt P38632)	KRE29 (Saccharomyces cerevisiae, UniProt P40026)	cross-linking MS		hits only		interaction screen	cross-linked
ACPFGCMKNWSAPIWCTNK (Bicycle 68 bicyclic peptide; C-terminal amide/TATA scaffold, three cysteines cyclised)	NECTIN4	fluorescence polarisation	peptide			Ki	310 nM
DNM1L K38A (Homo sapiens)	DNM1L 1-699 (Homo sapiens, UniProt O00429-4)	GTPase activity		1.3 µM total, without actin filaments	higher = more activity	relative GTPase activity	10 fold
B6 (TIMP2 27-153)	MMP3 100-272 (Homo sapiens, UniProt P08254)	enzyme activity, inhibitor, fluorogenic peptide cleavage assay				Ki	13.7 ± 1.3 nM
FGA (Homo sapiens, UniProt P02671)	WSCD2 (Homo sapiens, UniProt Q2TBF2)	cross-linking MS		together with: DSSO		cross-linked residues	K620 to K3
Mcm2-7, DyLight 650 on Mcm6 N-terminus (Saccharomyces cerevisiae)	ORC CDK-phosphorylated, Orc2 and Orc6 (Saccharomyces cerevisiae)	FRET			baseline: unphosphorylated ORC, higher = longer delay	delay in median formation time	> 2 fold
PSMB3 (Homo sapiens, UniProt P49720)	SPOCD1 (Homo sapiens, UniProt Q6ZMY3)	cross-linking MS	cells	together with: iqPIR		cross-linked residues	K77 to K1045
Histone H3.1 (Homo sapiens, UniProt P68431)	CBX8 (Homo sapiens, UniProt Q9HC52)	cross-linking MS		hits only		interaction screen	cross-linked

For quick reference, copied from above:
Molecule	partner	assay	system	setting	how to read	measurement	result
ACTA1 (Gallus gallus, UniProt P68139)	MYH1 (Oryctolagus cuniculus, UniProt A0A5F9CQ93)	laser three-bead trap		Bell-bond fit, Pi 5 mM, together with: ATP 100 µM		detachment rate without load	120 s⁻¹
ALB (Homo sapiens, UniProt P02768)	NUBP1 (Homo sapiens, UniProt P53384)	cross-linking MS		together with: DSSO		cross-linked residues	K402 to K211
FGA (Homo sapiens, UniProt P02671)	WSCD2 (Homo sapiens, UniProt Q2TBF2)	cross-linking MS		together with: DSSO		cross-linked residues	K620 to K3
